Assay results from different studies.
Several values in a cell are separate wells, animals, samples, runs or records. Numbers after ± are the reported error. Non-standard residues stand in square brackets, D forms with d. Square brackets hold non-standard residues; d marks the D form. Ends that are not written are not given here. No end group written: not given here. * marks the point of attachment.
PIN1: PIN1 51-163 (Homo sapiens, UniProt Q13526)
B1: UGT1A9 (Homo sapiens, UniProt O60656); chain GKLLVVPMDGSHWFTMRSVVEKLILRGHEVVVVMPEVSWQLGRSLNCTVKTYSTSYTLEDLDREFKAFAHAQWKAQVRSIYSLLMGSYNDIFDLFFSNCRSLFKDKKLVEYLKESSFDAVFLDPFDNCGLIVAKYFSLPSVVFARGILCHYLEEGAQCPAPLSYVPRILLGFSDAMTFKERVRNHIMHLEEHLLCHRFFKNALEIASEILQTPVTEYDLYSHTSIWLLRTDFVLDYPKPVMPNMIFIGGINCHQGKPLPMEFEAYINASGEHGIVVFSLGSMVSEIPEKKAMAIADALGKIPQTVLWRYTGTRPSNLANNTILVKWLPQNDLLGHPMTRAFITHAGSHGVYESICNGVPMVMMPLFGDQMDNAKRMETKGAGVTLNVLEMTSEDLENALKAVINDKSYKENIMRLSSLHKDRPVEPLDLAVFWVEFVMRHKGAPHLRPAAHDLTWYQYHSLDVIGFLLAVVLTVAFITFKCCAYGYRKCLGKKGRVKKAHKSKTH
B2: CKS1 (Saccharomyces cerevisiae, UniProt P20486); sequence looked up; chain MYHHYHAFQGRKLTDQERARVLEFQDSIHYSPRYSDDNYEYRHVMLPKAMLKVIPSDYFNSEVGTLRILTEDEWRGLGITQSLGWEHYECHAPEPHILLFKRPLNYEAELRAATAAAQQQQQQQQQQQQQQQQHQTQSISNDMQVPPQIS
Chain of UniProt P25963 (whole entry, looked up): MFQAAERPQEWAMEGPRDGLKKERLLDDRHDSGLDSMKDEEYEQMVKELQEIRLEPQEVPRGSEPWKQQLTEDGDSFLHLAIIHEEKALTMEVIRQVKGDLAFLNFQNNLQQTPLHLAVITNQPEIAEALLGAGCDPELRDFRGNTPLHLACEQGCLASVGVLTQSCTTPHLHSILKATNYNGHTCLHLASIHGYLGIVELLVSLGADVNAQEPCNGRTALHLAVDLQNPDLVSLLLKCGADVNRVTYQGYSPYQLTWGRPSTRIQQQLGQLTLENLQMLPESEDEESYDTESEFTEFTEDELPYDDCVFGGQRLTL
Chain of UniProt P15873 (whole entry, looked up): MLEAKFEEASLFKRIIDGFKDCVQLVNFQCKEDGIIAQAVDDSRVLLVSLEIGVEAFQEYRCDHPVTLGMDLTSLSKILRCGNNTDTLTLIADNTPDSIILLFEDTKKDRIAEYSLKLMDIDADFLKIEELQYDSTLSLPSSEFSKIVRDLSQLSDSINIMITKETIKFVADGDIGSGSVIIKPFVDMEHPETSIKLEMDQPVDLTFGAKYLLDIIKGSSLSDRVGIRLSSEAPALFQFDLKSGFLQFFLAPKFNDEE
Chain of UniProt P09119 (whole entry, unmodified, looked up): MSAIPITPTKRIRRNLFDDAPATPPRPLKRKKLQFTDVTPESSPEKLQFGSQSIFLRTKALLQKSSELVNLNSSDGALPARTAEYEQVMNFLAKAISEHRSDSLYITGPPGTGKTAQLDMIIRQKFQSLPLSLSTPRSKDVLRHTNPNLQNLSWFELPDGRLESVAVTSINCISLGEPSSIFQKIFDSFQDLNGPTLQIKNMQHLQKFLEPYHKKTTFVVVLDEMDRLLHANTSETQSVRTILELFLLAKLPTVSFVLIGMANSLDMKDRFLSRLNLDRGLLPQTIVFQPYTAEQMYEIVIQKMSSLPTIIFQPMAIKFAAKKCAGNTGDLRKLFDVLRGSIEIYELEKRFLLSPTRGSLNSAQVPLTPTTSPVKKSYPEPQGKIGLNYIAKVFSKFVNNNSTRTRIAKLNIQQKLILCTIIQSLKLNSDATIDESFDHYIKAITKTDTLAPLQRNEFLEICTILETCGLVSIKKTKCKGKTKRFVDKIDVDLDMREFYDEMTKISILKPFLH
Chain of UniProt P19466 (whole entry, unmodified, looked up): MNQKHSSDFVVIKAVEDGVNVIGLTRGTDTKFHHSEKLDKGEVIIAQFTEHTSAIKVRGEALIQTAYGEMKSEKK
Chain of UniProt P06702 (whole entry, looked up): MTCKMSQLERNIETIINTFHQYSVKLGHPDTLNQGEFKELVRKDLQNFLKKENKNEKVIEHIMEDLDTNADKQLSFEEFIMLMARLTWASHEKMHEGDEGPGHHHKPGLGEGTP
Chain of UniProt Q9NTG7 (whole entry, looked up): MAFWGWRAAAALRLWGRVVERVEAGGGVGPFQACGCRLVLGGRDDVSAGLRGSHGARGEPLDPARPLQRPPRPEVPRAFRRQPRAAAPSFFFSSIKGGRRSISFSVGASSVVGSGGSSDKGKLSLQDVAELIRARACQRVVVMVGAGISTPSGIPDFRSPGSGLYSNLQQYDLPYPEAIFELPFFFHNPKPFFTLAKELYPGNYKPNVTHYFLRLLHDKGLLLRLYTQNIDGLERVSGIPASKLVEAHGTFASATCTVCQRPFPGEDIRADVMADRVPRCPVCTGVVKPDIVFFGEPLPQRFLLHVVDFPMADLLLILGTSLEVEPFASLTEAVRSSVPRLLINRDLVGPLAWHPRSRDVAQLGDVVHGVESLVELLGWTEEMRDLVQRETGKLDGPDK
Chain of UniProt O60573 (whole entry, looked up): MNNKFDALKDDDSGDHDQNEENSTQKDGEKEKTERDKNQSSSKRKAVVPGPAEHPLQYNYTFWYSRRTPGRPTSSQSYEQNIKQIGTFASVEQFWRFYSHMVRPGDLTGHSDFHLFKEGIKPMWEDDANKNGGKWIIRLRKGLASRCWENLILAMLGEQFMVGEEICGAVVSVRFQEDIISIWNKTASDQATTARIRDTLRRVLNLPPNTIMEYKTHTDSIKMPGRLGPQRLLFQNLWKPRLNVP
Chain of UniProt Q6PDX6 (whole entry, looked up): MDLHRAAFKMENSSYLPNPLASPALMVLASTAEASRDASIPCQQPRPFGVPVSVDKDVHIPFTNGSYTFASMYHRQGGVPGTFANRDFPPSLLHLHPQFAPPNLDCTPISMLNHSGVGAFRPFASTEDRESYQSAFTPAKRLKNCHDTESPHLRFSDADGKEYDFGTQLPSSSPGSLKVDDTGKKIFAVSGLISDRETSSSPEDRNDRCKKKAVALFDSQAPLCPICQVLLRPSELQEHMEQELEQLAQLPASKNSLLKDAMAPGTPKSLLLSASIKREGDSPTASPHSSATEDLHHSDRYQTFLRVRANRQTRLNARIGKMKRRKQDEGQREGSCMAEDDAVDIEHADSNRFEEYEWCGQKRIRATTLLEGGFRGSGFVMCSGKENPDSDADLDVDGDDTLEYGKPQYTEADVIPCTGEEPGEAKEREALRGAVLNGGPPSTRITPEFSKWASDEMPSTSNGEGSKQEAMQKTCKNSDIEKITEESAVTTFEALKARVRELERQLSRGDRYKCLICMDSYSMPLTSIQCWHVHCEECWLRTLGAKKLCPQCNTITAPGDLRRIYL
Chain of UniProt P06400 (whole entry, unmodified, looked up): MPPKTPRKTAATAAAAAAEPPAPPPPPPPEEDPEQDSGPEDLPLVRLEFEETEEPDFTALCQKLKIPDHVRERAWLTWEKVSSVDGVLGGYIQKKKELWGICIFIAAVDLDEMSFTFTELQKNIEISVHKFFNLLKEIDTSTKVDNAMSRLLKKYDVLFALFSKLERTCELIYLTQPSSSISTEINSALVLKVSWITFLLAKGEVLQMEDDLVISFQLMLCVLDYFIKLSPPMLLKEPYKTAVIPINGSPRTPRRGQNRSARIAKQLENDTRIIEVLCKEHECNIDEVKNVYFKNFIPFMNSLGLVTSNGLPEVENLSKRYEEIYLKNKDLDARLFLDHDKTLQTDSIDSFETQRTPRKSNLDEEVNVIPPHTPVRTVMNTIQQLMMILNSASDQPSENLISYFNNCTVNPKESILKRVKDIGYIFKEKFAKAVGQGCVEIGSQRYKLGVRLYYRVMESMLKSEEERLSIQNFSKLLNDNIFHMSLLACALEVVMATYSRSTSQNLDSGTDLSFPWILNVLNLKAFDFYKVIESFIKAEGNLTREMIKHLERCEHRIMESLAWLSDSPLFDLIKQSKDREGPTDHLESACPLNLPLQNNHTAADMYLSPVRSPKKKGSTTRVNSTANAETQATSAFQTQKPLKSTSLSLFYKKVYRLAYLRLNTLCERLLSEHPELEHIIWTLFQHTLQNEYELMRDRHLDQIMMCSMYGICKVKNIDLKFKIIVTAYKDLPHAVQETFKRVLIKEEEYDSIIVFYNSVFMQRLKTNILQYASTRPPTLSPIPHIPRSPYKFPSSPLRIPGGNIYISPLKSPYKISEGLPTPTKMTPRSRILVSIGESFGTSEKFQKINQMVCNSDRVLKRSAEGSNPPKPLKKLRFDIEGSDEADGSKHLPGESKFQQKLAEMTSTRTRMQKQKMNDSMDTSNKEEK
Chain of UniProt Q16518 (whole entry, looked up): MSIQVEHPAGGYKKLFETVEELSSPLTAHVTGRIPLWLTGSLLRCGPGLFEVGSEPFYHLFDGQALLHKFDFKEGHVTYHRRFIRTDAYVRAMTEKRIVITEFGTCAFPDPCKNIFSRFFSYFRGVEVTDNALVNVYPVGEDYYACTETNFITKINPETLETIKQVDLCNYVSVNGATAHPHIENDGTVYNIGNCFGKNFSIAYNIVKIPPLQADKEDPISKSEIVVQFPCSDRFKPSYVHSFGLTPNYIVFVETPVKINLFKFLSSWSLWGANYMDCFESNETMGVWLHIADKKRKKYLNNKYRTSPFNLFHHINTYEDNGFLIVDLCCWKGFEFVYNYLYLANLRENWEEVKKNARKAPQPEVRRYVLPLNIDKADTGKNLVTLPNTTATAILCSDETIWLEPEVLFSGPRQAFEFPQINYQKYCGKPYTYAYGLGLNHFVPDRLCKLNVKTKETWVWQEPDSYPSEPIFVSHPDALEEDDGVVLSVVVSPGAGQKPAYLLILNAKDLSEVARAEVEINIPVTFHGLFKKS
Chain of UniProt P29350 (whole entry, unmodified, looked up): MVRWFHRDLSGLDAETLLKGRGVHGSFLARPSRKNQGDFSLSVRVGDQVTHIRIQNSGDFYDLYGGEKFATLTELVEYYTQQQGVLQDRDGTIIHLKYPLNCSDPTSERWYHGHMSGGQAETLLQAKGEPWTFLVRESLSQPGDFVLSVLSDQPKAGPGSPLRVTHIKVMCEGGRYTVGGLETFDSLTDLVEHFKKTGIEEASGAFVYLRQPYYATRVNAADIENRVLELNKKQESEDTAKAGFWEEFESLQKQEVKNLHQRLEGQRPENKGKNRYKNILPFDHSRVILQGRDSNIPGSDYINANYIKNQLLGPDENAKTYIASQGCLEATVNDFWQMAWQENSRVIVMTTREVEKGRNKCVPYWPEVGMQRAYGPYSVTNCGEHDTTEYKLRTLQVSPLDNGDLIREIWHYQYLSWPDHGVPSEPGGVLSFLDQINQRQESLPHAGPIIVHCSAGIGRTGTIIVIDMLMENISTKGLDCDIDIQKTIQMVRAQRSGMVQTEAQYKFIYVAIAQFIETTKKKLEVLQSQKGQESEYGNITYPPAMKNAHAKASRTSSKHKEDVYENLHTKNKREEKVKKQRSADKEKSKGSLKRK

Molecule = GAGUUGAGUUGAGUUGAGUUGAGUUGAGUUGAGUUGAGUUGAGUUGAGUUGAGUU (ssRNA; single strand); tested on = mtrB full length assumed T30V/D39A (Bacillus subtilis, UniProt P19466); test = filter binding; conditions = with: no tryptophan; quantity = Kd; result = 0.007 ± 0.001 µM
Molecule = KKAVK[pS]PAKAKAW (histone H1.1 residues 178-189 (Homo sapiens); pS183; pS = N[C@@H](COP(=O)(O)O)C(=O)O); tested on = PIN1; test = EXSY NMR; system = peptide; conditions = 1 mM peptide, 25 °C; quantity = exchange rate constant; result = 6 s⁻¹
Molecule = S. cerevisiae FACT complex; tested on = HTB1/HTA1 (Saccharomyces cerevisiae, UniProt P02293+P04911); test = ITC; conditions = second of two sites; quantity = Kd; result = 1.62 µM
Molecule = B1 (UGT1A9); tested on = O=c1cc(-c2ccc(O)c(O)c2)oc2cc(O)cc(O)c12; test = steady-state kinetics; conditions = pH 7.4, 37 °C; quantity = Vmax/Km; result = 3870 µL/min/mg and 2100 µL/min/mg
Molecule = 5FAM-GPLGVRGK(TAMRA)[AEEA]GRGDS-NH2 (MMP-cleavable RGD peptide; SMILES CC(C)C[C@H](NC(=O)[C@@H]1CCCN1C(=O)CNC(=O)c1ccc2c(c1)C(=O)OC21c2ccc(O)cc2Oc2cc(O)ccc21)C(=O)NCC(=O)N[C@H](C(=O)N[C@@H](CCCNC(=N)N)C(=O)NCC(=O)N[C@@H](CCCCNC(=O)c1ccc(-c2c3ccc(N(C)C)cc3[o+]c3cc(N(C)C)ccc23)c(C(=O)[O-])c1)C(=O)NCCOCCOCC(=O)NCC(=O)N[C@@H](CCCNC(=N)N)C(=O)NCC(=O)N[C@@H](CC(=O)O)C(=O)N[C@@H](CO)C(N)=O)C(C)C; N-terminal FAM, TAMRA on Lys, aeea linker, C-terminal amide; 5FAM = O=C1OC2(c3ccc(O)cc3Oc3cc(O)ccc32)c2ccc(C(=O)*)cc21; AEEA = NCCOCCOCC(=O)O; TAMRA = 5-carboxytetramethylrhodamine, CN(C)c1ccc2c(-c3ccc(C(=O)*)cc3C(=O)[O-])c3ccc(N(C)C)cc3[o+]c2c1); tested on = ITGAV/ITGB3; test = competition with ligand, ELISA; system = peptide; conditions = pH 7.6; quantity = IC50; result = 0.272 ± 0.064 µM
Molecule = ACTC1 R312C (x); tested on = heavy meromyosin HMM (Oryctolagus cuniculus); test = in vitro motility assay; conditions = model fit, with: alpha-actinin; quantity = frictional load; result = 336 pN
Molecule = KATGAA[pT]PKKSAKW (histone H1.4 residues 139-151 (Homo sapiens); pT145; pT = C[C@@H](OP(=O)(O)O)[C@H](N)C(=O)O); tested on = PIN1; test = EXSY NMR; system = peptide; conditions = 1 mM peptide, 25 °C; quantity = exchange rate constant; result = 5.6 s⁻¹
Molecule = human neutrophil elastase; tested on = Protein S100-A9 (S100A9, Homo sapiens, UniProt P06702); test = ELISA; conditions = up to 100 nM; quantity = binding; result = no binding
Molecule = ETDKE[pY][pY]TVKD (JAK1 1029-1039; pY1034/pY1035; pY = N[C@@H](Cc1ccc(OP(=O)(O)O)cc1)C(=O)O); tested on = PTPN6 243-530 Q252R/C453S (Homo sapiens, UniProt P29350); test = ITC; system = peptide; quantity = ΔH; result = -72.8 ± 1.67 kJ/mol
Molecule = KYKLADYRYGREEMLALFLK (GIGYF2(35-54) peptide; sequence looked up); tested on = EIF4E2 (Homo sapiens, UniProt O60573); test = binding, isothermal titration calorimetry; system = peptide; conditions = pH 7.0, 20 °C; quantity = Kd; result = 0.29 µM
Molecule = CCND1/CDK6 fusion, linker (Homo sapiens); tested on = RB1 1-892 (Homo sapiens, UniProt P06400); test = in vitro kinase assay; how to read = reference: wild-type Rb, higher = greater reduction; quantity = phosphorylation reduction; result = 20 fold
Molecule = GCVRLHESCLGQQVPCCDPAATCYCTGRGDSPASCYCR (AgRP variant); tested on = ITGAV/ITGB3 whole, on cells (Homo sapiens); test = competition with labeled echistatin, radioligand binding; system = designed binder, U87MG; conditions = 3 h, room temperature, with: 125I-echistatin 0.06 nM; quantity = IC50; result = 1.4 µM
Molecule = SLC27A4 AMP-binding domain to C-terminus; tested on = RPE65 (Homo sapiens, UniProt Q16518); test = HPLC; system = 293T-LC; conditions = 4 hours, normalised by RPE65 expression, with: all-trans-retinol 7 µM; how to read = reference: pRK control, higher = stronger inhibition; quantity = inhibition of 11-cis-retinol synthesis; result = 30%
Molecule = SLN[pY]IDLDLVK[dPEG8]LST[pY]ASINFQK (phospho-Tyr, PEG8-linked dimer; pY = N[C@@H](Cc1ccc(OP(=O)(O)O)cc1)C(=O)O); tested on = Tyrosine-protein phosphatase non-receptor type 11 (PTPN11, Homo sapiens, UniProt Q06124); test = phosphatase activity, activator; conditions = wild-type enzyme, with: DiFMUP 200 µM; quantity = EC50; result = 0.25 µM
Molecule = B2 (CKS1); tested on = Cdc6 2-29 P8A, pT7 (UniProt P09119); test = steady-state kinetics; how to read = reference: wild-type peptide, higher = weaker substrate affinity; quantity = KM; result = 6 fold
Molecule = IKBKB full length (Homo sapiens); tested on = NFKBIA 1-54 (Homo sapiens, UniProt P25963); test = steady-state kinetics; conditions = with: ATP; how to read = higher = faster phosphorylation; quantity = relative Vmax; result = 250 a.u.
Molecule = EYSEEELKT (also: fluorescent label and quencher, sites not given here; sequence looked up); tested on = NAD-dependent protein deacetylase sirtuin-3, mitochondrial (SIRT3, Homo sapiens, UniProt Q9NTG7); test = enzyme activity, substrate, continuous fluorescence; system = peptide; conditions = 5 to 15 min, pH 8.0, 37 °C, enzyme 0.4 µM, buffer 2, with: NAD+ 1 mM; quantity = Km; result = 4.75 ± 0.79 µM
Molecule = RFC1/RFC2/RFC3/RFC4/RFC5, Cy3 on N-terminal S6 tag (Saccharomyces cerevisiae); tested on = POL30, LD655 label on S6 tag (Saccharomyces cerevisiae, UniProt P15873); test = single-molecule colocalisation; conditions = with: PCNA; quantity = tethers with RFC; result = 9 of 14 tethers
Molecule = SERPINC1 R45E/R46E/K114E/R129E (Homo sapiens); tested on = coagulation factor IXa; test = steady-state kinetics; conditions = room temperature, with: pentasaccharide H5; quantity = k2; result = 62 M⁻¹ s⁻¹
Molecule = WDR48 fragment (Homo sapiens) (sequence not shown); tested on = USP12/ubiquitin, covalent Ub-PRG warhead (Homo sapiens); test = SEC-MALS; conditions = pH 7.5; quantity = molecule per partner; result = 2 UAF1 per USP12
Molecule = Rnf220 (Mus musculus, UniProt Q6PDX6); tested on = Gria2 (Mus musculus, UniProt P23819); test = GluA2 polyubiquitination; system = HEK293; how to read = reference: control without RNF220, higher = more ubiquitination; quantity = polyubiquitination level; result = 4.72
Molecule = CALM1 T26C, Alexa Fluor 568 at C26 (sequence not shown); tested on = Camk2d T287D (Rattus norvegicus); test = FRET; conditions = rapid Ca chelation; quantity = dissociation time constant; result = 1400 ms
